Assay results of several laboratories.
Each line is one published result; not all experiments were run side by side. ± gives the spread as reported.
MAPK10: Mitogen-activated protein kinase 10 (MAPK10, Homo sapiens, UniProt P53779)
ELANE: Neutrophil elastase (ELANE, Homo sapiens, UniProt P08246)

With O=C(Nc1ccc(I)cc1)N1CCC(n2c(=O)[nH]c3c(Br)cccc32)CC1 the IC50 was 300 nM (OGG1 (Homo sapiens, UniProt O15527); enzyme activity, inhibitor).
With CC(C)C[C@@H](NC(=O)[C@@H](Cc1ccccc1)NC(=O)[C@H]1CCCN1C(=O)[C@@H](CCC(N)=O)NC(=O)[C@H](NC(=O)[C@H]1CCCN1C(=O)[C@@H](CCCNC(=N)N)NC(=O)[C@@H](CO)NC(=O)[C@@H](CCC(N)=O)NC(=O)[C@@H](CC(=O)O)NC(=O)[C@H](N)[C@H](C)O)C(C)C)C(=O)N[C@H](CC(N)=O)C(=O)N[C@H](CC(C)C)C(=O)N[C@@H](C(=O)N[C@@H](C(=O)N1CCC[C@@H]1C(=O)N[C@H](CCCNC(=N)N)C(=O)N[C@H](CCCCN)C(=O)N1CCC[C@@H]1C(=O)N[C@H](CCCNC(=N)N)C(=O)N1CCC[C@@H]1C(=O)N1CCC[C@@H]1C(=O)N[C@H](CCCNC(=N)N)C(=O)N[C@H](CCCNC(=N)N)C(=O)N[C@H](CCCNC(=N)N)C(=O)N[C@H](CCC(N)=O)C(=O)N[C@H](CCCNC(=N)N)C(=O)N[C@H](CCCNC(=N)N)C(=O)N[C@H](CCCCN)C(=O)N[C@H](CCCCN)C(=O)N[C@H](CCCNC(=N)N)C(=O)NCC(N)=O)[C@H](C)O)[C@H](C)O the IC50 was 76300 nM (MAPK10; enzyme activity, inhibitor, radiometric; pH 7.5).
For C=CC(=O)Nc1cc(NC(=O)c2cnn(-c3ccccc3F)c2)ccc1F, the IC50 was 1700 nM (ATP6V1A (Homo sapiens, UniProt P38606); enzyme activity, inhibitor).
O=c1c2ccccc2sn1-c1ccccc1 gave an IC50 of 1510 nM (HDAC7 (Homo sapiens, UniProt Q8WUI4); enzyme activity, inhibitor).
Nc1ncnc2[nH]c(/C=C/c3ccc([N+](=O)[O-])cc3)nc12 has an IC50 of 231000 nM (ADORA2A (Homo sapiens, UniProt P29274); cAMP, ELISA).
With CNC(=O)c1ccccc1Oc1nc(Nc2cc(OC)c(OC)c(OC)c2)ncc1Br the IC50 was 170 nM (PRKAA1 (Homo sapiens, UniProt Q13131); inhibitor; together with: ATP 20 µM).
C=CC1C(OC2OC(COC(CC3C(C(=O)OC)=COC(OC4OC(CO)C(O)C(O)C4O)C3C=C)OC)C(O)C(O)C2O)OC=C(C(=O)OC)C1CC(=O)O (stereo not drawn) gave an IC50 of greater than 100000 nM (PTPN1 (Homo sapiens, UniProt P18031); enzyme activity, inhibitor, absorbance).
NS(=O)(=O)Oc1ccc2c3c(c(=O)oc2c1)CCC3 gave an IC50 of 32 nM (Steryl-sulfatase (STS, Homo sapiens, UniProt P08842); enzyme activity in cells, inhibitor).
The IC50 of O=C(/C=C(\O)C(F)(F)C(F)(F)F)c1cccnc1 is reported as 230 ± 10 nM (Formate-nitrite transporter (Plasmodium vivax, UniProt A0A1G4GWI6)).
CC(=O)C1=C(C)NC(=O)NC1c1ccc(Br)cc1 (stereo not drawn) has an IC50 of 149000 nM (AMY2 (Sus scrofa, UniProt P00690); enzyme activity, inhibitor).
OB(O)c1sccc1/C=N/OCc1ccccc1 gave an IC50 of 700 nM (ELANE; enzyme activity, inhibitor, fluorescence).
For CC(C)CN(CC(=O)NCCCCCCNC(=O)c1ccc(-c2n[nH]c3ccccc23)cc1)C(=O)CNC(=O)C1COc2ccccc2O1 (stereo not drawn), the IC50 was 363 nM (MAPK10; ligand displacement, FP).
CCc1ccccc1OS(=O)(=O)C1CC2OC1C(c1ccc(O)cc1)=C2c1ccc(O)cc1 (racemic) has an IC50 of 3210 nM (ESR2 (Homo sapiens, UniProt Q92731); reporter gene, antagonist, luciferase).
With N=C(N)NCCC[C@H](NC(=O)[C@H](CC(=O)O)NC(=O)[C@@H]1CSCCC(=O)NCC(=O)N[C@@H](Cc2c[nH]cn2)C(=O)N[C@H](Cc2ccccc2)C(=O)N[C@@H](CCCNC(=N)N)C(=O)N[C@H](Cc2c[nH]c3ccccc23)C(=O)N1)C(=O)N[C@@H](Cc1ccccc1)C(=O)NCC(N)=O the IC50 was 30 nM (MC1R (Homo sapiens, UniProt Q01726); ligand displacement, radioligand).
With CC1OC(Oc2c(-c3ccc(O)cc3)oc3cc(O)cc(O)c3c2=O)C(OC(=O)C=Cc2ccc(O)cc2)C(O)C1OC(=O)C=Cc1ccc(O)cc1 (stereo not drawn) the IC50 was 82 nM (CCR2 (Homo sapiens, UniProt P41597); ligand displacement in cells, radioligand).
Cc1cc(NC(=O)c2cccc(-n3cc(NC(=O)Nc4ccccc4)cn3)c2)ccn1 has an IC50 of 34.7 nM (MAPK10; enzyme activity, inhibitor, TR-FRET).
For CC(=O)OCCN(c1ccccc1Oc1ccc(C(F)(F)F)cc1)S(=O)(=O)c1ccc(N)cc1, the IC50 was 1660 nM (ESRRA (Homo sapiens, UniProt P11474); transcriptional activity, inhibitor, mammalian two-hybrid reporter; HEK293T; 48 h, GAL4-LBD fusion).
For COc1ccc(-c2nc(C(=O)NCc3ccc(C)cc3)c(O)c3ncccc23)c(OC)c1, the IC50 was 6100 ± 2200 nM (Tripartite terminase subunit 3, C-terminal nuclease domain (Human betaherpesvirus 5, UniProt P16732); endonuclease activity, inhibitor, ELISA).
For CNC(=O)C1CCN(c2ccccc2NC(=O)c2ccc(-c3cc(O)ccc3C)c(OC)c2)CC1, the IC50 was greater than 50000 nM (FGR (Homo sapiens, UniProt P09769); target engagement, NanoBRET; intact cells).
With O=C(/C=C/c1ccc(O)c(O)c1)CC(=O)CCc1ccc(O)cc1 the IC50 was 112000 nM (PNLIP (Sus scrofa, UniProt P00591); enzyme activity, inhibitor, absorbance).
With O=c1c2c(O)cc(O)cc2oc2oc3cc(O)ccc3c12 the IC50 was 53400 ± 1200 nM (alpha-glucosidase; inhibitor).
C=C(C)C(=O)Nc1ccc2nc(NCCCCCN(C)C)nc(NCCCCCCN(C)C)c2c1 has an IC50 of 12000 ± 2500 nM (Histone-lysine N-methyltransferase SETDB1, triple tudor domain (SETDB1, Homo sapiens, UniProt Q15047, C385A); binding, TR-FRET displacement; 1 h, room temperature).
For CC1(C)C2CC3C(c4ccccc4)c4c(O)c(C=O)c(O)c(C=O)c4OC3(C)C1C2 (single isomer, unassigned; (+)), the IC50 was greater than 100000 nM (PFKP (Homo sapiens, UniProt Q01813, K688R); enzyme activity, inhibitor; HEK293T cell lysate; variant).
CCNC(=O)[C@H]1O[C@@H](n2cnc3c(NCCCCCCCCNC(=O)CCCCCNC(=O)COc4ccc(/C=C/C5=[N+]6C(=Cc7ccc(-c8cccs8)n7[B-]6(F)F)C=C5)cc4)ncnc32)[C@H](O)[C@@H]1O has an IC50 of 47.9 nM (ADORA1 (Homo sapiens, UniProt P30542); CRE reporter gene, agonist; CHO-A1; Gi-mediated inhibition, together with: forskolin).
The IC50 of CN(Cc1cccc(-c2ccc(F)cc2)c1)Cc1cc(C2CC2)on1 is reported as greater than 50000 nM (Acetyl-CoA synthetase (Cryptococcus neoformans, UniProt J9VFT1)).
For CCn1cc[n+](CC)[c]1[Au-]([Cl])([Cl])[Cl], the IC50 was 550 nM (trxB (Escherichia coli, UniProt P0A9P4); enzyme activity, inhibitor, absorbance; with preincubation).
For C#CCOc1cccc(Oc2nc3c(c(=O)n(CCCO)c(=O)n3C)n2Cc2ccc(C3(C(F)(F)F)N=N3)cc2)c1, the IC50 was 6.2 nM (TRPC1/TRPC5 (TRPC1/TRPC5, Homo sapiens, UniProt P48995+Q9UL62); calcium influx, inhibitor, Fura-2; HEK T-REx expressing TRPC1/TRPC5; together with: englerin A 30 nM).
Cc1cc(-c2ccc(/N=N/c3ccc4c(S(=O)(=O)O)cc(S(=O)(=O)O)c(N)c4c3O)c(C)c2)ccc1/N=N/c1ccc2c(S(=O)(=O)O)cc(S(=O)(=O)O)c(N)c2c1O gave an IC50 of 540 nM (ELANE; enzyme activity, inhibitor, absorbance; pH 7.4).
With CCCCCCCCCCCCCCCCC1=C[C@H](C(=O)OCC)[C@H]2C(=O)C(C(=O)OC)=C(CCCCCCCCCCCCCCCC)[C@H]2[C@H]1C(=O)OC the IC50 was greater than 50000 nM (protein kinase A; inhibitor).
The IC50 of CCC(=O)NC1CC=C(c2cc3c(Nc4cc5ncsc5cc4F)ncnc3s2)CC1 (racemic) is reported as 12 nM (RIPK2 (Homo sapiens, UniProt O43353); enzyme activity, inhibitor).
For N=C(N)NCCC[C@@H]1NC(=O)[C@H](Cc2c[nH]c3ccccc23)NC(=O)[C@H](CCCNC(=N)N)NC(=O)[C@H](Cc2c[nH]c3ccccc23)NC(=O)[C@H](CCCNC(=N)N)NC(=O)[C@H](Cc2c[nH]c3ccccc23)NC(=O)[C@H](CCCNC(=N)N)NC(=O)[C@H](Cc2c[nH]c3ccccc23)NC(=O)[C@H](CCCNC(=N)N)NC(=O)[C@H](Cc2c[nH]c3ccccc23)NC(=O)[C@H](CCCNC(=N)N)NC(=O)[C@H](Cc2c[nH]c3ccccc23)NC(=O)[C@H](CCCNC(=N)N)NC(=O)[C@H](Cc2c[nH]c3ccccc23)NC1=O, the IC50 was 770 nM (BRAF (Homo sapiens, UniProt P15056); enzyme activity, inhibitor).
For Nc1ncnc2c1ncn2[C@@H]1O[C@H](CNc2c(NC(=O)CCC(=O)c3ccccc3C(=O)O)c(=O)c2=O)[C@@H](O)[C@H]1O, the IC50 was greater than 200000 nM (2-succinylbenzoate--CoA ligase (menE, Escherichia coli, UniProt P37353); enzyme activity, inhibitor, MenB-MenE coupled).
COc1cccc(Cc2cc(C)nn(S(=O)(=O)c3cccc4c(N(C)C)cccc34)c2=O)c1 gave an IC50 of 17700 nM (FPR1 (Homo sapiens, UniProt P21462); calcium signal, antagonist).
O=C(/C=C/c1ccc2ccccc2c1)NO gave an IC50 of 273 ± 58 nM (hdac10 (Danio rerio, UniProt F1QCV2)).
COc1cc(O)ccc1CC[C@H](c1ccc(O)cc1)c1cc2c(c(C)c1O)O[C@H](c1ccc(O)cc1)CC2 gave an IC50 of 2100 nM (ALOX5 (Homo sapiens, UniProt P09917); 5-LO product formation; human PMNL; together with: A23187 plus arachidonic acid).
The IC50 of COc1cc(OC)c2c(O)c3c(=O)cc(C)oc3c(-c3c(O)cc4cc5c(c(O)c4c3OC)C(=O)CC(C)(O)O5)c2c1 (stereo not drawn) is reported as 28000 nM (Beta-secretase 1 (BACE1, Homo sapiens, UniProt P56817); enzyme activity, inhibitor, FRET).
